Results of several laboratories.
Lines come from different studies, so protocols differ. Several values in a cell are separate wells, animals, samples, runs or records. Numbers after ± are the reported error.
TDP1: Tyrosyl-DNA phosphodiesterase 1 (TDP1, Homo sapiens, UniProt Q9NUW8)
UniProt Q9NUW8, sequence (whole entry, looked up): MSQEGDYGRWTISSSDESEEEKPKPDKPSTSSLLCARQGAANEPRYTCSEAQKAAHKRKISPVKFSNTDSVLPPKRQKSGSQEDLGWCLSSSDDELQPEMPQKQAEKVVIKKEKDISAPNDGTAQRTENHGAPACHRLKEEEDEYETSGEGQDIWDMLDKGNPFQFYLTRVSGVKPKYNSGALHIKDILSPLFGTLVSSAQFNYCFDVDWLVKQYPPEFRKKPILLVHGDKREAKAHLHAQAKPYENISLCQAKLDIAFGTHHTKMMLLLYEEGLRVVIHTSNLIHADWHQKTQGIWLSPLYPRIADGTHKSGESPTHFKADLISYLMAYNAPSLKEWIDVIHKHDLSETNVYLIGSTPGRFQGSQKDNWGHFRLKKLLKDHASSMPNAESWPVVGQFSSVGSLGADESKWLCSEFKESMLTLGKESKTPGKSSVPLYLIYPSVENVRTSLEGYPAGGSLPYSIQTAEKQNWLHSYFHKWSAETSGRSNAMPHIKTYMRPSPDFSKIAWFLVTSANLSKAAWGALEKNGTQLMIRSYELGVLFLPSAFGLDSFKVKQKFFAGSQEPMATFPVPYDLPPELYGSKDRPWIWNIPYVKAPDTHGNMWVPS
UniProt P0A7A9, sequence (whole entry, looked up): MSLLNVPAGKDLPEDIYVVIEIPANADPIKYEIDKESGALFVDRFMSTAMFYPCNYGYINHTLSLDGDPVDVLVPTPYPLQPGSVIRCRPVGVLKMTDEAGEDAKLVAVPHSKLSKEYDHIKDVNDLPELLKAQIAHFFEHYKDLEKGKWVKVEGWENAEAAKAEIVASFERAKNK

COc1cc(N2CCN(C(=O)CN)CC2)ccc1Nc1ncc(Cl)c(Nc2ccccc2P(C)(C)=O)n1  viability (NCI-H3122; CCK-8; 100 nM, 48 h): 39%
COc1cccc(OC)c1-c1cc(C(=O)NC2(C(=O)O)C3CC4CC(C3)CC2C4)nn1-c1ccc(C(=O)N(C)CCCN(C)CCCN(C)C(=O)[C@H](CCCCNC(=O)[C@H](CC(C)C)NC(=O)C2OC2C(=O)O)NC(=O)CN2CCN(CC(=O)[O-])CCN(CC(=O)[O-])CCN(CC(=O)[O-])CC2)cc1C(C)C.[177Lu+3] (mixture of isomers)  surface-bound fraction (HT-29; concentration not given, 60 min; baseline: added activity): 3.76 ± 0.2%
CC1(C)CC[C@@]2(CO)C(=C3C=C[C@@H]4[C@@]5(C)CC[C@H](O)[C@@](C)(CO)[C@@H]5CC[C@@]4(C)[C@]3(C)C[C@@H]2O)C1  protein level (HepG2; Western blot, measured: PPAR-α; 7.5 µM, unit not given, with: ethanol; baseline: β-actin): 2.22 and 2.19 and 1.23
CN(C)CCN1CCN(c2ccc3nc(-c4ccc5nc(-c6ccc(C(F)(F)F)cc6)[nH]c5c4)[nH]c3c2)CC1  growth percent (HCT-15; SRB; 10 µM, 48 h): 91.6%
COc1cc(N(C)CCN(C)C)c(NC(=O)/C=C/c2cccc3ccccc23)cc1Nc1nccc(-c2cn(C)c3ccccc23)n1  inhibition (NCI-H1975; cell growth or viability, MTT; 0.5 µM, 72 h): 55.4%
O=C(O)c1ccc(Nc2c(-c3ccccc3)nc3ccc(CON=Cc4ccccc4OCc4nnsc4Cl)cn23)cc1 (mixture of isomers)  inhibition (TDP1; enzyme activity, inhibitor; 100 µM, unpurified compound): 33.9%
C=CC(=O)Nc1cc(Nc2nccc(-c3c(-c4ccc(C(F)(F)F)cc4)n(C)c4ccccc34)n2)c(OC)cc1N(C)CCN(C)C  inhibition (NCI-H1975; cell growth or viability, MTT; 0.5 µM, 72 h): 71.2%
CN1CCCNC(=O)c2cccc(c2)C(=O)NCCCN(C)CCCNc2cccc3c2C(=O)c2cccc(c2C3=O)NCCC1  log2 fold change (SAS; RNA-Seq, measured: CTSO mRNA; 1 µM, 6 h; baseline: untreated cells): 2.59
CCOC(=O)c1ccc(-n2c(N)c(C#N)c(SC)c(C#N)c2=O)cc1  viability (HepG2; cell growth or viability, MTT; 3.125 µM, 24 h): 99.8%
CCCCCCc1cccc(C(O)CC(CO)NC(=O)CCCCCCCCCCNC(C)=O)c1 (stereo not shown)  total ceramide level (HeLa; CERT activity, HPLC-MS/MS lipidomics; 1 µM, 24 h, not cell-number normalised): 54700 pmol/sample and 61700 pmol/sample and 52100 pmol/sample
Cc1ncsc1-c1ccc(C(C)NC(=O)C2CC(O)CN2C(=O)C(NC(=O)CCCCCCCCCCN2CCCC(Nc3ncc(Cl)c(Nc4ccccc4S(=O)(=O)C(C)C)n3)C2)C(C)(C)C)cc1 (stereo not shown)  log2 fold change (22Rv1; RNA-seq, measured: ZNF793 mRNA; concentration not given; baseline: DMSO): -1.25
O=C(N1CCCC1)n1cc(-c2ccc(-c3ccccc3)cc2)nn1  SILAC ratio per peptide (mouse T cells; N-terminal labelling proteomics, measured: Tpi1 N-terminal peptide; 0.001 µM, 6 h; baseline: DMSO): 1 and 0.98 and 1.11
Cn1ncc2cc(-c3cncc(Cl)c3N3CCC4(CCNC4=O)CC3)ccc21  log2 fold change (LS174T; gene expression, microarray, measured: GADD45G mRNA; concentration not given, 4 h; baseline: untreated cells): -1.59
NC(=O)c1ccc(-c2ccccc2Cl)c2c3c([nH]c12)CC[C@@H](N)C3  IC50 (DOHH-2; cell growth or viability): 0.00322 µM
CN(C)C(=O)c1cccc(N2Cc3cn(Cc4ccc(C#N)cc4)nc3C2)c1  IC50 (HEK293 expressing GluA1 and GluA2; glutamate excitotoxic cell death, CellTox Green; with: glutamate): 0.018 µM
Cc1c(Cl)cccc1Nc1ccccc1C(=O)[Se]CC(=O)Nc1cccc(C(F)(F)F)c1  mean growth percent (NCI60 melanoma subpanel; cell growth; 10 µM, 48 h, one-dose): -78.9%
Cc1n[nH]c(C)c1C(=O)CC1(O)C(=O)Nc2cc(Cl)cc(Cl)c21 (stereo not shown)  IC50 (Uncharacterized protein (Trypanosoma brucei brucei, UniProt Q386Q8); inhibitor, coupled colorimetric; Trypanosoma brucei): > 100 µM
CN(C)C(=O)c1cccc(N2Cc3cn(Cc4ccc(F)c(Cl)c4)nc3C2)c1  IC50 (HEK293 expressing GluA1 and GluA2; glutamate excitotoxic cell death, CellTox Green; with: glutamate): 0.015 µM
COc1cc(N(C)CCN(C)C)c(NC(=O)/C=C/c2cccc(C)c2)cc1Nc1nccc(-c2cn(C)c3ccccc23)n1  inhibition (NCI-H1975; cell growth or viability, MTT; 0.5 µM, 72 h): 64.5%
COc1ccc(NC(=O)c2c(Nc3ccccc3)sc(C(=O)N/N=C/c3ccc(OC)c(OC)c3)c2NC(C)=O)cc1  viability (HepG2; cell growth or viability, SRB; 1 nM, 48 h): 99.9%
C#Cc1ccc(C=NOCc2ccc3nc(-c4ccccc4)c(Nc4ccc(C(=O)O)cc4)n3c2)cc1  inhibition (TDP1; enzyme activity, inhibitor; 100 µM, unpurified compound): 51.3%
CC(=O)Oc1ccccc1C(=O)[Se]CC(=O)Nc1cccc(C(F)(F)F)c1  mean growth percent (NCI60 melanoma subpanel; cell growth; 10 µM, 48 h, one-dose): -50.9%
COc1ccccc1-c1ccncc1C(=O)Nc1ccc(OCc2ccc(Cl)cc2)nn1  colony survival (DLD-1 parental (BRCA2 WT); 20 µM, average of 3 runs; baseline: untreated): 97.5%
CCCC[N+]1=c2cc3c4cc2[O][Mn-2]1(=[C]=O)(=[C]=O)(=[C]=O)[n+]1ccc(cc1)C(=O)Nc1ccccc1NC(=O)c1cc[n+](cc1)[Mn-2](=[C]=O)(=[C]=O)(=[C]=O)([O]3)[N+]=4CCCC  viability reduction (HCT-15; MTT; 50 µM, 48 h, photolysed compound): 90%
CC1(C)CC(=O)C2=C(C1)Oc1ccc3ccccc3c1C2c1c[nH]c2ccccc12 (stereo not shown)  mean lipid content (3T3-L1 preadipocytes; adipogenesis, Oil Red O staining; IC20, 14 days): 1.02 OD492
CCc1n(CC(=O)O[C@@H]2C[C@H](C)CC[C@H]2C(C)C)c2ccccc2[n+]1C  mRNA level (HTS cells (mouse); gene microarray, measured: TRIB3; 1 µM, 12 h, unit not given; baseline: untreated): 8.88
COc1ccc2c(c1)c(CC(=O)[Se]CC(=O)Nc1cccc(C(F)(F)F)c1)c(C)n2C(=O)c1ccc(Cl)cc1  mean TGI (NCI60 melanoma subpanel; total growth inhibition, inhibitor; five-dose): 4.39 µM
Cc1ccc2c(c1)C(O)(CC(=O)c1ccc3c(c1)OCO3)C(=O)N2 (stereo not shown)  IC50 (ppa (Escherichia coli, UniProt P0A7A9); enzyme activity, inhibitor): > 100 µM
O=C(C[Se]C(=O)c1cccnc1Nc1cccc(C(F)(F)F)c1)Nc1cccc(C(F)(F)F)c1  mean growth percent (NCI60 CNS subpanel; cell growth; 10 µM, 48 h, one-dose): -92.4%
COC(=O)C1=C(C)Oc2ccc(Br)cc2C1C(C(C)=O)C(=O)OC (stereo not shown)  lipid content (3T3-L1 preadipocytes; adipogenesis, Oil Red O staining; IC20, 14 days, single replicate): 0.632 OD492
CCN(CC)CC(=O)Nc1cccc(-n2cc(-c3ccc4ccc(-c5cn(-c6cccc(NC(=O)CN(CC)CC)c6)nn5)cc4c3)nn2)c1  fold regulation (RCC4; PCR angiogenesis array, measured: CXCL9; 5 x IC50, 6 h, normoxia; baseline: untreated): -1.1
O=C(Nc1nnc2c1c(-c1ccc(Cl)cc1)nc1sc(=Cc3ccco3)c(=O)n12)c1ccccc1 (mixture of isomers)  cell growth (UACC-257; SRB; 10 µM, NCI60 single-dose screen; baseline: untreated): 92.4%
C=CC(=O)Nc1cc(Nc2nccc(-c3c(-c4ccc5c(c4)OCCO5)n(C)c4ccccc34)n2)c(OC)cc1N(C)CCN(C)C  inhibition (NCI-H1975; cell growth or viability, MTT; 0.5 µM, 72 h): 68.3%
CC(C)c1ccc(N(C)c2ccc3c(c2)OCC[C@H]3CNc2cnccc2C(=O)O)cc1  IC50 (HCC1419; cell growth or viability, ATP luminescence; 7 days): ≥ 10 µM
COc1ccccc1-c1ccncc1C(=O)Nc1nnc(OCc2ccc(Cl)cc2)s1  γH2AX foci-positive nuclei (DLD-1 BRCA2 knock-out; immunofluorescence; 10 µM, 96 h): 57.9%
CCN(C(=O)c1cc(F)ccc1Oc1nncnc1N1CCC2(C1)CN([C@H](CCCN(C)CCOC)C(C)C)C2)C(C)C  GI50 (C-33-A; cell growth or viability; 72 h): > 10 µM
O=C(C[Se]C(=O)C12CC3CC(CC(C3)C1)C2)Nc1cccc(C(F)(F)F)c1  GI50 (NCI60 melanoma subpanel; cell growth, inhibitor; five-dose): 3.32 µM
